Assay results collected from several papers.
Each line is one published result; not all experiments were run side by side. ± marks the error that the study gave.
Organism: Salmonella typhimurium

| Compound | assay | system | setting | how to read | endpoint | value |
| --- | --- | --- | --- | --- | --- | --- |
| N#C[C@@]1(n2ccc(N)nc2=O)O[C@H](CO)[C@@H](O)[C@H]1O | – | TA98 | 50 µM, without S9 | – | viability | 85% |
| O=[N+]([O-])c1ccc(NC2CCNCC2)c(C(F)(F)F)c1 | SOS/umu test | TA1535/pSK1002 | 0.016 mg/mL, 4 h, with S9, full range | – | survival | 102% |
| CNC(=O)c1c(N(C)N=O)ncn1C | mutagenicity, Ames plate incorporation | TA98 | 1500 µg/plate, without S9, methanol | – | revertant colonies per plate | 22 ± 8 |
| OC(CCN1CC=C(c2ccc(F)cc2)CC1)c1ccc(F)c2ccccc12 (stereo not drawn) | SOS response, SOS/umu test | TA1535/pSK1002, TGA medium | 0.000244 mg/mL, 4 h, added: 10% rat liver S9 | baseline: untreated | induction factor | 1 |
| CC(C)N(N=O)C(C)C | mutagenicity, Ames plate incorporation | TA100 | 500 µg/plate, without S9, methanol | – | revertant colonies per plate | 144 ± 22 |
| Cc1cc(C(=O)NC(C)(C)COc2cccc3c2C(N)=NS(=O)(=O)N3)cc(C)n1 | Ames test, confirmatory | TA1535 | 3333 µg/plate, added: rat liver S9 | baseline: solvent control | revertant ratio | 0.9 |
| COc1cccc(-c2n[nH]c(SCc3ccccn3)n2)c1OC | Ames test, preincubation | TA98 | 0.13 mg/plate, without S9 | – | revertant colonies per plate | 23 |
| O=[N+]([O-])c1ccc(N2CCN(CCC(O)c3ccc(F)cc3)CC2)c(C(F)(F)F)c1 (stereo not drawn) | SOS/umu test | TA1535/pSK1002, TGA medium | 0.001 mg/mL, 4 h, added: rat liver S9 | – | survival | 86.1% |
| O=NN1CCN(C2CCCC2)CC1 | mutagenicity, Ames plate incorporation | TA1537 | 5000 µg/plate, 3 d, without S9, methanol | – | revertant colonies per plate | 10 ± 3 |
| O=[N+]([O-])c1ccc(N2CCC(NCCC(O)c3ccc(F)c4ccccc34)CC2)c(C(F)(F)F)c1 (stereo not drawn) | SOS/umu test | TA1535/pSK1002 | 0.001 mg/mL, 4 h, with S9, lower range | – | survival | 89.5% |
| CC(C)N(C)N=O | mutagenicity, Ames plate incorporation | TA98 | 5000 µg/plate, 3 d, without S9, methanol | – | revertant colonies per plate | 23.7 ± 8 |
| CC(=O)N1CCC(C(=O)N2CCN3C(=O)c4cc(-c5ccccc5)ccc4NC(=O)C3C2)CC1 (stereo not drawn) | – | TA1537 | 500 µg/plate | – | revertants per plate | 13 |

A few entries again:
| Compound | assay | system | setting | how to read | endpoint | value |
| --- | --- | --- | --- | --- | --- | --- |
| CC(C)N(C)N=O | mutagenicity, Ames plate incorporation | TA98 | 5000 µg/plate, 3 d, without S9, methanol | – | revertant colonies per plate | 23.7 ± 8 |
